# Measured values gathered from unrelated publications.
# Sample: plasma
SMILES,host,route,dose,setting,AUC
COC1C=COC2(C)Oc3c(C)c(O)c4c(c3C2=O)C2=NC3(CCN(CC(C)C)CC3)NC2=C(NC(=O)C(C)=CC=CC(C)C(O)C(C)C(O)C(C)C(OC(=O)Nc2cnccn2)C1C)C4=O (stereo not drawn),female CD-1 mouse,intravenous,5 mg/kg,,38000 ng·h/mL
COC1C(c2ccc(Cl)c(Cc3ccc(OC4CCOC4)cc3)c2)OC(CO)C(O)C1O (stereo not drawn),CD-1 mouse,oral,10 mg/kg,,23600 ng·h/mL
Cc1cc(C(=O)N[C@@H](CC(=O)NC(C)(C)C)C(=O)NCCNC(=O)c2cccc(-c3cc[nH]n3)c2)no1,mouse,intravenous,0.1 mg/kg,,12.6 ng·h/mL
CN[C@H](CC(C)C)C(=O)N[C@H]1C(=O)N[C@@H](CC(N)=O)C(=O)N[C@H]2C(=O)N[C@H]3C(=O)N[C@H](C(=O)N[C@H](C(=O)N[C@H](CCCNC(=N)N)C(N)=O)c4cc(O)cc(O)c4-c4cc3ccc4O)[C@H](O)c3ccc(c(Cl)c3)Oc3cc2cc(c3O[C@@H]2O[C@H](CO)[C@@H](O)[C@H](O)[C@H]2O[C@H]2C[C@](C)(N)[C@H](O)[C@H](C)O2)Oc2ccc(cc2Cl)[C@H]1O,female CD-1 mouse,intravenous,5 mg/kg,single dose,8870 ng·h/mL
COC1C=COC2(C)Oc3c(C)c(O)c4c(c3C2=O)C2=NC3(CCN(CC(C)C)CC3)NC2=C(NC(=O)C(C)=CC=CC(C)C(O)C(C)C(O)C(C)C(OC(=O)c2cccnc2)C1C)C4=O (stereo not drawn),female CD-1 mouse,intravenous,5 mg/kg,,27900 ng·h/mL
O=S(=O)(Nc1ccc(OC(F)(F)F)cc1)N1CCCC(C2c3ccc(F)cc3CCc3cc(F)ccc32)C1 (stereo not drawn),mouse,oral,30 mg/kg,,44800 ng·h/mL
Cc1cc(C(=O)N[C@@H](CC(=O)NC(C)(C)C)C(=O)NCCNC(=O)c2cccc(-n3cccn3)c2)no1,mouse,intravenous,0.1 mg/kg,,14.1 ng·h/mL
COc1ccccc1NC(=O)OC1C(C)C(OC)C=COC2(C)Oc3c(C)c(O)c4c(c3C2=O)C2=NC3(CCN(CC(C)C)CC3)NC2=C(NC(=O)C(C)=CC=CC(C)C(O)C(C)C(O)C1C)C4=O (stereo not drawn),female CD-1 mouse,oral,10 mg/kg,,10200 ng·h/mL
O=S(=O)(N[C@H]1CCO[C@@H](C2c3ccccc3CCc3ccccc32)C1)c1ccc(OC(F)(F)F)cc1,mouse,oral,30 mg/kg,,12900 ng·h/mL

# For quick reference, copied from above:
SMILES,host,route,dose,setting,AUC
O=S(=O)(Nc1ccc(OC(F)(F)F)cc1)N1CCCC(C2c3ccc(F)cc3CCc3cc(F)ccc32)C1 (stereo not drawn),mouse,oral,30 mg/kg,,44800 ng·h/mL
